Measurements of several laboratories.
FGFR2: Fibroblast growth factor receptor 2 (FGFR2, Homo sapiens, UniProt P21802)
UniProt P21802, sequence (whole entry, looked up): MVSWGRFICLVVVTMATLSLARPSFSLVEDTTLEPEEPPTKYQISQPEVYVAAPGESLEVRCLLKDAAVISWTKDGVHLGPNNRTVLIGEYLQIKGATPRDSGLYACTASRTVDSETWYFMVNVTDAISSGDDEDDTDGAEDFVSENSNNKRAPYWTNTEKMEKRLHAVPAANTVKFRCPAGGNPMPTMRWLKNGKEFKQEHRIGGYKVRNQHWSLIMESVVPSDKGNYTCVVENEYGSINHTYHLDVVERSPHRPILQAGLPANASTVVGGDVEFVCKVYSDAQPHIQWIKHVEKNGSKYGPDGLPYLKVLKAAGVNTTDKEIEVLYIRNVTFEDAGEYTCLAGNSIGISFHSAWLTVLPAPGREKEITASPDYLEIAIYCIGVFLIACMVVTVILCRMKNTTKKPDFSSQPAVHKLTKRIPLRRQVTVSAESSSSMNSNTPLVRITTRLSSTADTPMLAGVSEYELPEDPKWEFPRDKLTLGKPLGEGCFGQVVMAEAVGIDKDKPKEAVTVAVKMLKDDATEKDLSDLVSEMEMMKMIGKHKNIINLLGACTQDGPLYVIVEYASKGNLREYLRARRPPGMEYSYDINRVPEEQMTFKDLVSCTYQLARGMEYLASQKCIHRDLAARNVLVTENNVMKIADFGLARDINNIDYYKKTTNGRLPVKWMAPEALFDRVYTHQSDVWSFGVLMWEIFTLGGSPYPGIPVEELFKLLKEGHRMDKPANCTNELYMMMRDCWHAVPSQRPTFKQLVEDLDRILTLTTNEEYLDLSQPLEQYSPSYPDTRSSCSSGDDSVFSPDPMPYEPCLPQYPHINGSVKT
PDGFRA: Platelet-derived growth factor receptor alpha (PDGFRA, Homo sapiens, UniProt P16234)
UniProt P16234, sequence (whole entry, looked up): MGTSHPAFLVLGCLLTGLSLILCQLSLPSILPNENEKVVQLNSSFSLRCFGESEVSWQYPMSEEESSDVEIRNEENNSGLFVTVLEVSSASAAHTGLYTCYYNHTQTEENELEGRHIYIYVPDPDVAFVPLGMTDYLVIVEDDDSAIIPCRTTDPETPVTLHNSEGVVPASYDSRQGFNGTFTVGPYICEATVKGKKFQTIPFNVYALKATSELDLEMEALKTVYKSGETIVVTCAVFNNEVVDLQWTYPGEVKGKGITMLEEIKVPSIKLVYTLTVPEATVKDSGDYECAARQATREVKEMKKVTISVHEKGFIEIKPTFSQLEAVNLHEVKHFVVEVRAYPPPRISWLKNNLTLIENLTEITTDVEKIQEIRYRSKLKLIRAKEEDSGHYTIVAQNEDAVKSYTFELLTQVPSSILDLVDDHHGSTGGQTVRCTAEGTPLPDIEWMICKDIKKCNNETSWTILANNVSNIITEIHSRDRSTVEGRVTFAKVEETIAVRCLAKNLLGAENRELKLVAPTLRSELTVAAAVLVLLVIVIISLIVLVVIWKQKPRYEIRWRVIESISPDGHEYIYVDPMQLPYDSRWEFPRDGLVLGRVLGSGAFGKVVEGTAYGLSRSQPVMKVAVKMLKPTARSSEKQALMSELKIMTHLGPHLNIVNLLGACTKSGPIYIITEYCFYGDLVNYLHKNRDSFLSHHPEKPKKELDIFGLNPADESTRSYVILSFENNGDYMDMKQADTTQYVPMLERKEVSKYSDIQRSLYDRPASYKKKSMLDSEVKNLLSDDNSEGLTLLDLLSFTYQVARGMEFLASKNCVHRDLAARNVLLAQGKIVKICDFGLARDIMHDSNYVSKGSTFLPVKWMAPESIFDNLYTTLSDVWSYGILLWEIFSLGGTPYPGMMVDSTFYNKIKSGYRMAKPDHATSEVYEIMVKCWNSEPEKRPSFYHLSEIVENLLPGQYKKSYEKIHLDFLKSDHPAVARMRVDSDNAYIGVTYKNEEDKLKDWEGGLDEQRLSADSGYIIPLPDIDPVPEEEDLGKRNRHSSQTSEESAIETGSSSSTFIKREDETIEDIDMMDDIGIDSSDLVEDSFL
UniProt P43403, sequence (whole entry, looked up): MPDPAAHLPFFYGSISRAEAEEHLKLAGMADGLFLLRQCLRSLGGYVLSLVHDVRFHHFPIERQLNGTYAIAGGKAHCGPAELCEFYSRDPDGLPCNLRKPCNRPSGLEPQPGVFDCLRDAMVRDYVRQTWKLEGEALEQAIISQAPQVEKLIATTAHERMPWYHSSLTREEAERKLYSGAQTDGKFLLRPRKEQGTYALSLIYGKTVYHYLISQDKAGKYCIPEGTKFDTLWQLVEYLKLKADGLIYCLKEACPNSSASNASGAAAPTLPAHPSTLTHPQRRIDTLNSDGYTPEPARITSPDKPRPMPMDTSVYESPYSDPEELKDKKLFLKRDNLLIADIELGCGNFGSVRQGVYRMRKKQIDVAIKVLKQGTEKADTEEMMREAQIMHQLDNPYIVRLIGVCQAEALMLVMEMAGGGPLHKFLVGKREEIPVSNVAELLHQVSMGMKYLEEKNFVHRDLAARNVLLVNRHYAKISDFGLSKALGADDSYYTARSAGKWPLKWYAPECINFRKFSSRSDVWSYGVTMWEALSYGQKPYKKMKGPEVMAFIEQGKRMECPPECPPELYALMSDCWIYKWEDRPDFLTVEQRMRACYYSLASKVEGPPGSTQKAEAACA

SMILES | tested on | effect on | action | technique | tested at | quantity | value
CCN(O)N=Nc1ccc(S(=O)(=O)Nc2onc(C)c2C)cc1 |  | DPPH scavenging |  | absorbance | 20 µg/mL | inhibition | 9.81%
[2H]c1c([2H])c([C@]2([2H])CCCN2C(=O)C(C)(C)Oc2ccc3cn[nH]c3c2)c([2H])c([2H])c1C([2H])([2H])[2H] | ZAP70 (Homo sapiens, UniProt P43403) | binding |  | competition with immobilised ligand | 1 µM | remaining binding | 60%
CNc1ncc2c(/C=C/C(=O)N3CCC(OC)CC3)nn(Cc3cccc(C(F)(F)F)c3)c2n1 | FGFR2 | enzyme activity | inhibitor | radiometric | 1 µM | remaining activity | 77%
C1=C/COCc2cc(ccc2OCCN2CCCC2)Nc2nccc(n2)-c2cccc(c2)COC/1 | EGFR (Homo sapiens, UniProt P00533, G719S) | binding |  |  | 0.1 µM | remaining binding | 84%
COc1cc(-c2cncc3c2CN(C)Cc2cc(N4CCNCC4)ccc2-3)cc(OC)c1OC | PDGFRA | enzyme activity | inhibitor |  | 1 µM | remaining activity | 94%
CCCCC(=O)Nc1ccc(-c2ccc3ncn(CCC)c(=O)c3c2)cn1 | PDGFRA | binding |  | competition with immobilised ligand | 0.5 µM | remaining binding | 100%
Cc1cc([C@@H](C)Nc2ccccc2C(=O)O)c2nc(N3CCC(F)(F)CC3)c(C#N)c(=O)n2c1 | FGFR2 | binding |  | competition with immobilised ligand | 10 µM | remaining binding | 100%
Cc1cccc(N(O)N=Nc2ccc(S(=O)(=O)Nc3cc(C)on3)cc2)c1 |  | DPPH scavenging |  | absorbance | 20 µg/mL | inhibition | 27.9%

For quick reference, copied from above:
SMILES | tested on | effect on | action | technique | tested at | quantity | value
CCN(O)N=Nc1ccc(S(=O)(=O)Nc2onc(C)c2C)cc1 |  | DPPH scavenging |  | absorbance | 20 µg/mL | inhibition | 9.81%
